Measured values of several laboratories.
Each numbered part is a random draw from the data of one study; scales do not carry over between parts. Changes are numbered by the printed parent chain.

Series 1
Target: CCND1, cyclin fold, Cln2 fusion (human)
Technique: yeast growth competition, sequencing
Sample: yeast
Notes: weak parent motif
Reference: not given
Direction: higher = stronger binding
Quantity: normalised enrichment score
Parent: REPIN1 docking peptide (human); QSFRGWVALVLHL; partner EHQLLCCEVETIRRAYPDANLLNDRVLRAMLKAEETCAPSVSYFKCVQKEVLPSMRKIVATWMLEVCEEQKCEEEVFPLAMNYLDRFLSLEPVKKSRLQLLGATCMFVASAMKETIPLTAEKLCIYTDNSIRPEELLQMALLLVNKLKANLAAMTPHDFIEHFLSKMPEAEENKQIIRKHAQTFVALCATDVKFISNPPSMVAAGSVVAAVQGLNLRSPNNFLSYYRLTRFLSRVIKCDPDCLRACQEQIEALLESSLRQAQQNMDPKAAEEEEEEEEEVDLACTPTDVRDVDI
W6A: 0.213
H12A: 0.364
V7A: 1.17
Q1A: 0.365
F3A: 0.857
V10A: 0.443

Series 2
Target: Sal-like protein 4, full length isoform A (SALL4, Homo sapiens, UniProt Q9UJQ4, residues 1-1053)
UniProt Q9UJQ4, sequence (whole entry, looked up): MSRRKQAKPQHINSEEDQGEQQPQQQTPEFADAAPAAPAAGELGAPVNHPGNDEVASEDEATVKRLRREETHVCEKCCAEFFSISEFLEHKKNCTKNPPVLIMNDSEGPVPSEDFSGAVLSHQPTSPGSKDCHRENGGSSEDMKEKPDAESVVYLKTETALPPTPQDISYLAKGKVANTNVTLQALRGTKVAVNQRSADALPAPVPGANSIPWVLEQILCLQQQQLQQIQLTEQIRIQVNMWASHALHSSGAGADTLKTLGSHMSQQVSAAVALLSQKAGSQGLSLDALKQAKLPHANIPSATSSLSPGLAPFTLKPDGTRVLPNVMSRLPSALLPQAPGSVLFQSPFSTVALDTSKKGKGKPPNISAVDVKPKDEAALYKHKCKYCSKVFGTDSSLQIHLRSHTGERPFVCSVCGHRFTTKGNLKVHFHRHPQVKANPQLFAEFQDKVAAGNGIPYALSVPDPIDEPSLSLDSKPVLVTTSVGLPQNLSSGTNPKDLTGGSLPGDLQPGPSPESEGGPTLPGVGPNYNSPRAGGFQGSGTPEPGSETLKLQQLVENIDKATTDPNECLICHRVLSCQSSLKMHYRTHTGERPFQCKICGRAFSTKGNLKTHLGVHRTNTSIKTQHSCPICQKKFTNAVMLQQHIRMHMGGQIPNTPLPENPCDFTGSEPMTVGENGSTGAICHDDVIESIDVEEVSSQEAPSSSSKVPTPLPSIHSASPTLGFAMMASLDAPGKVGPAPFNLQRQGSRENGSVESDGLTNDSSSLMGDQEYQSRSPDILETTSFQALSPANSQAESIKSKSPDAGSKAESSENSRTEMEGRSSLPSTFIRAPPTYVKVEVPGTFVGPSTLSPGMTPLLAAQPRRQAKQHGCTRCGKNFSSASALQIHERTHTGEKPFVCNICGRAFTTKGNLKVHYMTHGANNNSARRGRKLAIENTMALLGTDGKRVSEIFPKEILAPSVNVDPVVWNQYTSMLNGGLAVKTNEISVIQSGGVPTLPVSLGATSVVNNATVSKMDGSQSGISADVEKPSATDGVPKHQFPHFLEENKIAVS
Technique: universal PBM
Form: double-stranded DNA, one strand shown
Sample: in vitro
Tested at: 600 nM
Notes: 8-mer, flanks averaged, mean of replicates
Direction: higher = stronger binding
Quantity: E-score
CCAAGGTA: -0.0483
TAATAGAA: 0.375
CATTCAGG: 0.0175
GATACGAA: 0.0628
GTCTGTCA: 0.00575
AGTATGGA: 0.217
ACGTACCT: -0.045
CGGGTTTC: -0.279
TAGAATCA: 0.102
ACTTCAGC: -0.16
CGAGTGTA: 0.00249
GCTTCTCC: -0.168
AACTCAGA: 0.106
AAACAACA: 0.195
CACGAATG: 0.099
GCTTAACC: -0.108
GCACTTGA: -0.0849
CATCAGCG: -0.0903

Series 3
Target: Histone acetyltransferase KAT6A, winged helix 2, GST fusion (KAT6A, Homo sapiens, UniProt Q92794, residues 85-181)
Technique: protein binding microarray
Form: double-stranded DNA, one strand shown
Sample: in vitro
Tested at: not given
Notes: 8-mer, flanks averaged, mean of 2 arrays, mostly near background
Reference: not given
Direction: higher = stronger binding
Quantity: E-score
Target sequence (chain): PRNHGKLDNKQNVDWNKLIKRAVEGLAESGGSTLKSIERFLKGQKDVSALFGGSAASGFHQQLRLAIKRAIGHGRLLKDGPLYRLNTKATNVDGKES
CCCCGCAC: 0.18
ACTCAATG: -0.0446
ATAATCTC: 0.0137
CTGACGAA: 0.0854
AATGCGCT: 0.0193
ATATCTCC: -0.0528
ACGTGTAC: -0.0987
AGCGCTTA: -0.00992
CTGCTGGC: 0.0117
TAGGTTAA: 0.028
CGGCATCC: 0.16
CCGCTTAA: 0.159
GCACTGAA: -0.00148
GCAATGCA: 0.0774
GCTTGCCC: 0.0515
AGCGGCCG: 0.174
AGACAAAT: -0.00468
GCCTGTAA: -0.121
AGCTTGTG: 0.0438
ACCGTAAC: -0.0833
CATAGACG: -0.109

Series 4
Target: RNA binding protein fox-1 homolog 2, RRM domain, GST-SBP tag (RBFOX2, Homo sapiens, UniProt O43251-10, residues 100-194)
Technique: RNA Bind-n-Seq
Form: RNA
Sample: in vitro
Tested at: 365 nM
Notes: natural RNA segment, single round, ends assumed
Reference: no-protein control
Direction: higher = stronger binding
Quantity: RBNS enrichment (R)
Construct (chain): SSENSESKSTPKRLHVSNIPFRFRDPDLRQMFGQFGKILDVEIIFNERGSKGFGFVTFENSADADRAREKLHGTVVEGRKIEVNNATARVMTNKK
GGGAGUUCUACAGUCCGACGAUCAUGAUUGUGACUUCUAGUUCUUUUCUAGAGGAUGCUGCUAGAAAAUGGUUUUGCUUUGUAUUUUAUAGCUUGUUACCCUUAGGUAGGUAACAUCUUACAUUCUGUUUUCUUGGAAUUCUCGGGUGCCAA: 1.9
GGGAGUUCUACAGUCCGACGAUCAAUUUUCAAUUUAUGGUGAUGAUCUGCUGAUAUGCAUUUAUAAAGUAAGCUCUGUUGUACAGUCUGUCCAAAUGGGUCAAGGUUGCCUUUAGAAGCAAAUAGUGUGAUUUUGGAAUUCUCGGGUGCCAA: 0.487
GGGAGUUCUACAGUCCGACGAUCAUCUAUUUUCUGUUUUACUCGAUUUUGGUUUGGAGGGAAAAGGGCAUUAGUUUAAAAUGUCGUUUUUGUUACAGCACAAAGGUUUUGUUUACCCGUCAAGUAUUAGCAGCUGGAAUUCUCGGGUGCCAA: 0.487
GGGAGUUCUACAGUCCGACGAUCUUGAGACAUCACAUUAUUCAUCCUGUGUCCAAGACUCAGAUAUUCUGCCCCAGUCAAAAUCAUCUUGUGCCAAAAAAUUAGAGGUUUGAUUCAUCGUGUCCCUGUUUGAAUGGAAUUCUCGGGUGCCAA: 0.441
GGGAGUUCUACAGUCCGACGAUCCUUGGUUUGGGGGUUCAGGCUCUAGGAUCGAUUCCAGAAGGAGCCUUGAGCCCCAACCCCGUGAAAAGAUCUCAUACCGUAGGACUUCAGGUAUUAUUUACUUUUAUUUUUGGAAUUCUCGGGUGCCAA: 0.488
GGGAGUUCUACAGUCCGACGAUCACCUUUCCUGAAGUAUGCACCCUAGAAAAGAAUUGUGUGCUAAUGCUUGUCAGAGCUGUGGCAGUACUUAACUCUGAGGAUGUAGGAGACGUGACUGGCUUUUAGAGUGAUGGAAUUCUCGGGUGCCAA: 0.525
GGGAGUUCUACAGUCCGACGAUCGGGAAUGGUGUUAAAAAAGAAAAAAAGACAGAAAAGGCCUUAUGUGAUAUGUAUCAUAGUUAAUAAAUCAAUCUUGUAAAAAAAAAAACCAUAAAUAAAAACAGGCCUGAUGGAAUUCUCGGGUGCCAA: 0.957
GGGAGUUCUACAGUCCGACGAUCUAUAGUGGAGAAACCAGAAAGAAACUGAGCCCUAGGCUGGGCAUUCCCACUGCAGUGGACCUACUCGGCUUCCUCCCACUGCAAUCCAUUGCCUCUCAGCAUUCCGGCCUUGGAAUUCUCGGGUGCCAA: 0.711
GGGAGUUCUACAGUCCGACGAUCUUGGAAUGGGAGUCUGAAAUGGGGCUACUGUUUCAGUCCUAAUGUGCUGUGUGACAUUGGGACAACACUUUCCCUCUCUGGACCUCAGUUUCCCUCUGUAUACAAGGAUCUGGAAUUCUCGGGUGCCAA: 0.3
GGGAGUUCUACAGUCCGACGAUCGCAGCCUGUCUCCUGUUUUGAGCCCUUUAGGGGUAACUCAUUUGUAAAACCACCAGCCUGAGCUCAAGGAUGAGGCCACAGGGCUCUGGUGGACUUCAAAUCCCAGCUUUUGGAAUUCUCGGGUGCCAA: 1.14
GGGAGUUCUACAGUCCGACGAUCUUCAGAUUUAAAAUGAAUAGCUGGACUCUGCUGGCUCAGUCUCCUCUCCUUUUUAACACACUUUCUUAGGUCUAUGGAAACUACAGGGUUGCCACUGAAAUGUUUUUUUAUGGAAUUCUCGGGUGCCAA: 0.616
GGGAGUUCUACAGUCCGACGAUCGCCCGUUUUUACUCAGACAGGGACAGUGUUCACCUACUUGAUACUGCCGUGUUUCUUACCCUCCCUUGAAGUUUCUCUAAGCUCAUCACAGCCUAGAGUUCAGGAAAGUUUGGAAUUCUCGGGUGCCAA: 0.271

Excerpt of the above (series 2):
AGTATGGA: 0.217
TAATAGAA: 0.375
GCTTCTCC: -0.168
GATACGAA: 0.0628
